Measurements pooled from the literature.
Values joined by “and” are separate records of one study, mostly repeats; a detail may differ. ± gives the spread as reported.
DRD3: D(3) dopamine receptor (DRD3, Homo sapiens, UniProt P35462)
RAD52: DNA repair protein RAD52 homolog (RAD52, Homo sapiens, UniProt P43351)
Ugcg: Ceramide glucosyltransferase (Ugcg, Mus musculus, UniProt O88693)
APLNR: Apelin receptor (APLNR, Homo sapiens, UniProt P35414)

| SMILES | target | test | test system | setting | IC50 |
| --- | --- | --- | --- | --- | --- |
| CCc1ccc(NS(=O)(=O)c2c(C)[nH]c(C)c2C(=O)N2CCCC2)cc1 | DRD3 | β-arrestin recruitment, antagonist |  |  | 8.6 µM |
| COc1ccc(OC)c(Nc2nc(NCCO)c3ccccc3n2)c1 | RAD52 | D-loop formation |  | added: RAD52 450 nM | 8.8 ± 0.42 µM |
| COCC1CN(C2CCN(c3cc(OC)c(Nc4ncc(Br)c(Nc5ccc6c(c5P(C)(C)=O)OCCO6)n4)cc3C)CC2)C1 | Epidermal growth factor receptor (EGFR, Homo sapiens, UniProt P00533) | enzyme activity, inhibitor, TR-FRET |  |  | 0.0091 µM |
| Cc1cc(N2CCN(C)CC2)nc2ccc(NC(=S)NCCCN3CCN(C)CC3)cc12 | RAD52 | D-loop formation |  | added: RAD52 450 nM | 15.4 ± 0.57 µM |
| CC(C)(C)c1ccc(NC(=O)c2cnn(-c3ccc([N+](=O)[O-])cc3)c2C(F)(F)F)cc1 | Prostaglandin G/H synthase 2 (PTGS2, Homo sapiens, UniProt P35354) | enzyme activity, inhibitor |  |  | 9.03 µM |
| CC(=O)OC1OC(OC(C)=O)C2CC(O)(C3(C)CCCC(C)(C)C3)CCC12 (stereo not shown) | Peptidyl-prolyl cis-trans isomerase A (PPIA, Homo sapiens, UniProt P62937) | enzyme activity, inhibitor |  |  | 0.064 µM |
| Cc1ccc(NS(=O)(=O)c2c(C)[nH]c(C)c2C(=O)N2CCCCC2)cc1Cl | DRD3 | β-arrestin recruitment, antagonist |  |  | 34 µM |
| Fc1ccc(Nc2nc(NC3CCCCC3)c3ccccc3n2)cc1F | Beta-2 adrenergic receptor (ADRB2, Homo sapiens, UniProt P07550, F133L) | β-arrestin2 recruitment, antagonist, BRET | HEK293 | mutant F133L, added: isoprenaline 1 µM | 1.26 µM |
| Cc1sc2nc(CN(Cc3ccccc3Cl)c3ccc4[nH]c(=O)[nH]c4c3)[nH]c(=O)c2c1C | Cytosolic phospholipase A2 (PLA2G4A, Homo sapiens, UniProt P47712) | enzyme activity, inhibitor, fluorescence |  |  | 8.3 µM |
| CC(Cc1ccc(O)c(O)c1)C(C)Cc1ccc(O)c(O)c1 (stereo not shown) | Thyroxine 5-deiodinase (DIO3, Homo sapiens, UniProt P55073, Y257A) |  |  |  | 0.179 µM |
| CN1CCN(CCCNC(=O)c2cc3c(-c4ccc(Cl)cc4)nn(C)c3s2)CC1 | RAD52 | D-loop formation |  | added: RAD52 450 nM | 2.7 ± 0.35 µM |
| OC[C@@H]1[C@@H](O)[C@H](O)[C@@H](O)CN1CCCCCOCC1CCCCC1 | Ugcg | enzyme activity, inhibitor, fluorescence |  |  | 0.5 µM |
| OC[C@H]1c2[nH]cnc2[C@H](O)[C@@H](O)[C@@H]1O | Lysosomal alpha-glucosidase (GAA, Homo sapiens, UniProt P10253) |  |  | pH 4.8 | > 100 µM |
| CCn1nc(Cl)c2c1-c1cnc(N)c(c1)O[C@H](C)c1cc(F)ccc1-c1nn(C)cc1C2 | BDNF/NT-3 growth factors receptor (NTRK2, Homo sapiens, UniProt Q16620) | enzyme activity, inhibitor, radiometric |  |  | 0.018 µM |
| COc1cc(O)c2c(c1)CCC21CCC(=O)CC1 | Sucrase-isomaltase, intestinal (Si, Rattus norvegicus, UniProt P23739) | enzyme activity, inhibitor, absorbance |  |  | 2200 µM |
| Cc1cc(NC2CCN(C)CC2)ccc1-c1cc2c(N3CCC[C@H](C(=O)NCc4ccc(OC(F)(F)F)cc4)C3)ncnc2[nH]1 | Hepatocyte growth factor receptor (MET, Homo sapiens, UniProt P08581) | enzyme activity, inhibitor, mobility shift |  |  | 4.18 µM |
| CC(C)C[C@H](NC(=O)[C@H](CC(=O)O)NC(=O)[C@H](C)N)C(=O)N1CCC[C@H]1C(=O)N[C@@H](Cc1ccccc1)C(=O)N[C@H](CCC(=O)O)C(=O)N[C@@H](Cc1ccccc1)C(N)=O | Transcriptional regulator PlcR (Bacillus thuringiensis, UniProt A0ACM8Q0N2) | reporter gene, inhibitor, lacZ reporter | 407 Cry− |  | 0.977 ± 0.04 µM |
| CC(C)=CCC1C2=C(OC(C(C)(C)O)CC2=O)C23C(=C(C)C)OC(C)(C)C2CCC13C (stereo not shown) | Beta-secretase 1 (Mus musculus, UniProt P56818) | enzyme activity in cells, inhibitor |  |  | 0.74 µM |
| OC[C@@H]1[C@@H](O)[C@H](O)[C@@H](O)CN1CCCCCOCC(COCCCCCN1C[C@H](O)[C@@H](O)[C@H](O)[C@H]1CO)C12CC3CC(CC(C3)C1)C2 | Ugcg | enzyme activity, inhibitor, fluorescence |  |  | 40 µM |
| COc1ccccc1Nc1nc(NCCCO)c2ccccc2n1 | RAD52 | D-loop formation |  | added: RAD52 450 nM | 4.8 ± 0.85 µM |

| SMILES | target | test | test system | setting | IC50 |
| --- | --- | --- | --- | --- | --- |
| Cc1cc(C)c(S(=O)(=O)N(CC(=O)O)c2ccc(Nc3ccnc(N4CCCC4)n3)cc2)c(C)c1 | Serine/threonine-protein kinase Chk2 (CHEK2, Homo sapiens, UniProt O96017) | enzyme activity, inhibitor |  |  | > 100 µM |
| OC[C@@H]1[C@@H](O)[C@H](O)[C@@H](O)CN1CCCCCOCc1ccc(-c2ccccc2)cc1F | Ugcg | enzyme activity, inhibitor, fluorescence |  |  | 0.025 µM |
| O=C1C(Cl)=C(NCCN2CCOCC2)C(=O)c2ncccc21 | Protein arginine N-methyltransferase 3 (PRMT3, Homo sapiens, UniProt O60678) | enzyme activity, inhibitor |  |  | 1.5 µM |
| CNCc1ccc2c(c1)N(C(=O)OCC(F)(F)F)[C@H](CNC(=N)N)[C@H]2NC(=O)C(=O)Nc1ccc(Cl)c(F)c1 | env (Human immunodeficiency virus 1, UniProt Q2N0S5) | HIV-1 infection | Cf2Th-CD4/CCR5 cells | 48 h | 46 µM |
| C=CC(=O)Nc1cc(Nc2ncnc(Nc3ccccc3S(N)(=O)=O)n2)c(OC)cc1N(C)CCN(C)C | Epidermal growth factor receptor (EGFR, Homo sapiens, UniProt P00533, L858R/T790M) | enzyme activity, inhibitor |  |  | 0.00061 µM |
| O=C1Nc2ccc(Cl)cc2[C@@](C#CC2CC2)(C(F)(F)F)O1 | Aldehyde dehydrogenase X, mitochondrial (ALDH1B1, Homo sapiens, UniProt P30837) | enzyme activity, inhibitor |  |  | 5.53 µM |
| OC[C@@H]1[C@@H](O)[C@H](O)[C@@H](O)CN1CCCC(F)(F)COCc1ccc(-c2ccccc2)cc1 | Ugcg | enzyme activity, inhibitor, fluorescence |  |  | 0.06 µM |
| Cc1nn(-c2cccc(N)c2)c(=O)c2cnc(Nc3ccc(N4CCNCC4)cc3)nc12 | Hepatocyte growth factor receptor (MET, Homo sapiens, UniProt P08581, M1250T) | enzyme activity, inhibitor |  |  | > 10 µM |
| OC[C@H]1[C@@H](O)[C@H](O)[C@@H](O)CN1CCCCCOCc1ccc(-c2ccccc2)c(C(F)(F)F)c1 | Ugcg | enzyme activity, inhibitor, fluorescence |  |  | 0.003 µM |
| CC(=O)N1CCN(CCOc2ccc(C3CCN(C4=Nn5c(nnc5C(F)(F)F)CC4)CC3)cc2)CC1 | Androgen receptor (AR, Homo sapiens, UniProt P10275) | antagonist, nuclear translocation |  | top concentration 10 µM | > 10 µM |
| CCN(CC)CC(=O)Nc1cccc(-n2cc(-c3ccc4ccc(-c5cn(-c6cccc(NC(=O)CN(CC)CC)c6)nn5)cc4c3)nn2)c1 | Interleukin-1 receptor-associated kinase 1 (IRAK1, Homo sapiens, UniProt P51617) | enzyme activity, inhibitor |  |  | > 10 µM |
| N#C[C@@H]1CC(F)(F)CN1C(=O)CNC(=O)c1ccnc2ccc(OCCCN3CCN(C(=S)Nc4ccc(C[C@H]5CN(CC(N)=O)CCN(CC(N)=O)CCN(CC(N)=O)CCN5CC(N)=O)cc4)CC3)cc12 | Prolyl endopeptidase FAP (FAP, Homo sapiens, UniProt Q12884) | enzyme activity, inhibitor, fluorescence |  |  | 0.0119 µM |
| COc1ccc(Nc2cc(NC3CC3)n3ncc(C#N)c3n2)cc1 | Calcium/calmodulin-dependent protein kinase type II subunit alpha (CAMK2A, Homo sapiens, UniProt Q9UQM7) | inhibitor |  |  | > 10 µM |
| COc1ccc(CSc2ncccn2)cc1OS(=O)(=O)c1ccc([N+](=O)[O-])cc1 | APLNR | β-arrestin recruitment, antagonist |  |  | 3.1 µM and ~3 µM |
| CCCCOCCCCCN1C[C@H](O)[C@@H](O)[C@H](O)[C@H]1CO | Ugcg | enzyme activity, inhibitor, fluorescence |  |  | 4 µM |
| CCN(CC)CCCN(Cc1cc2cc3c(cc2[nH]c1=O)OCO3)C(=S)NCCCN(C)C | RAD52 | D-loop formation |  | added: RAD52 450 nM | 13.6 ± 0.64 µM |
| OC[C@@H]1[C@@H](O)[C@H](O)[C@@H](O)CN1CCCCCOCc1cccc(-c2ccccc2)c1 | Ugcg | enzyme activity, inhibitor, fluorescence |  |  | 0.075 µM |
| O=C(Oc1ccc(CSc2ncccn2)cc1)c1ccc([N+](=O)[O-])cc1 | APLNR | β-arrestin recruitment, antagonist |  |  | > 100 µM |
| CCCCCCCCCOCCCCCN1C[C@H](O)[C@@H](O)[C@H](O)[C@@H]1CO | Ugcg | enzyme activity, inhibitor, fluorescence |  |  | 0.05 µM |
| Nc1ncc2c(n1)-c1c([nH]c3ccc(C4=CCOCC4)cc13)CCC2 | Dual specificity protein kinase CLK2 (CLK2, Homo sapiens, UniProt P49760) | enzyme activity, inhibitor, radiometric |  |  | 0.37 µM |

Repeated from above:
| SMILES | target | test | test system | setting | IC50 |
| --- | --- | --- | --- | --- | --- |
| CN1CCN(CCCNC(=O)c2cc3c(-c4ccc(Cl)cc4)nn(C)c3s2)CC1 | RAD52 | D-loop formation |  | added: RAD52 450 nM | 2.7 ± 0.35 µM |
| OC[C@@H]1[C@@H](O)[C@H](O)[C@@H](O)CN1CCCCCOCC1CCCCC1 | Ugcg | enzyme activity, inhibitor, fluorescence |  |  | 0.5 µM |
| OC[C@H]1c2[nH]cnc2[C@H](O)[C@@H](O)[C@@H]1O | Lysosomal alpha-glucosidase (GAA, Homo sapiens, UniProt P10253) |  |  | pH 4.8 | > 100 µM |
| CCn1nc(Cl)c2c1-c1cnc(N)c(c1)O[C@H](C)c1cc(F)ccc1-c1nn(C)cc1C2 | BDNF/NT-3 growth factors receptor (NTRK2, Homo sapiens, UniProt Q16620) | enzyme activity, inhibitor, radiometric |  |  | 0.018 µM |
| COc1cc(O)c2c(c1)CCC21CCC(=O)CC1 | Sucrase-isomaltase, intestinal (Si, Rattus norvegicus, UniProt P23739) | enzyme activity, inhibitor, absorbance |  |  | 2200 µM |
